Measured values collected from several papers.
Every numbered part comes from another study and shows a few of its results, in no order. Several values in a cell are separate wells, animals, samples, runs or records.
Sequence of UniProt Q2M2I8 (whole entry, looked up): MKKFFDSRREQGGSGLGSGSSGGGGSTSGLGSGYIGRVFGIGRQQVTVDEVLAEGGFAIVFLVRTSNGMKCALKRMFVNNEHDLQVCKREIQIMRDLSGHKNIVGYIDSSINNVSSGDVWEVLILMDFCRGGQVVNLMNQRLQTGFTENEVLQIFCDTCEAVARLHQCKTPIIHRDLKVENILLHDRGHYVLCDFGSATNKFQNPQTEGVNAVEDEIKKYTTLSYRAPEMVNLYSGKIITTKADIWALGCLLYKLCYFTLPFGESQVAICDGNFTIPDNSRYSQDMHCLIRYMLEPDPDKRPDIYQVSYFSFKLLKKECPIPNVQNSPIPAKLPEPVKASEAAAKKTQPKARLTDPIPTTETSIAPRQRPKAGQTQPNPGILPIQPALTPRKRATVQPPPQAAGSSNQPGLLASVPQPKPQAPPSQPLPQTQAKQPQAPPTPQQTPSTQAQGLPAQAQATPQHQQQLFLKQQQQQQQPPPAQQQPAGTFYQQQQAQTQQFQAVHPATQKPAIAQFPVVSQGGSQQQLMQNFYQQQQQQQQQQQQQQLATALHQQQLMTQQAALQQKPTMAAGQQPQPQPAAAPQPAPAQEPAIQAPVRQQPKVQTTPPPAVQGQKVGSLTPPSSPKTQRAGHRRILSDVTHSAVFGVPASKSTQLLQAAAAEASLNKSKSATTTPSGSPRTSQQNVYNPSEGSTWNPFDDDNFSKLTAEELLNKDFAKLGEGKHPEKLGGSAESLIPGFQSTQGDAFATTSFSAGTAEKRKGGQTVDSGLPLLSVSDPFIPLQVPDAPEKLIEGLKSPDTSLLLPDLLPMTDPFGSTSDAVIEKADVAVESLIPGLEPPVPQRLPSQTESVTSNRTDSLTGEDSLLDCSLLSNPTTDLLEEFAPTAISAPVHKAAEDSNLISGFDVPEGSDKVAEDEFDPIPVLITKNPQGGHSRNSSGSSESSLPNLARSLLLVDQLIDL
Sequence of UniProt Q59H18 (whole entry, looked up): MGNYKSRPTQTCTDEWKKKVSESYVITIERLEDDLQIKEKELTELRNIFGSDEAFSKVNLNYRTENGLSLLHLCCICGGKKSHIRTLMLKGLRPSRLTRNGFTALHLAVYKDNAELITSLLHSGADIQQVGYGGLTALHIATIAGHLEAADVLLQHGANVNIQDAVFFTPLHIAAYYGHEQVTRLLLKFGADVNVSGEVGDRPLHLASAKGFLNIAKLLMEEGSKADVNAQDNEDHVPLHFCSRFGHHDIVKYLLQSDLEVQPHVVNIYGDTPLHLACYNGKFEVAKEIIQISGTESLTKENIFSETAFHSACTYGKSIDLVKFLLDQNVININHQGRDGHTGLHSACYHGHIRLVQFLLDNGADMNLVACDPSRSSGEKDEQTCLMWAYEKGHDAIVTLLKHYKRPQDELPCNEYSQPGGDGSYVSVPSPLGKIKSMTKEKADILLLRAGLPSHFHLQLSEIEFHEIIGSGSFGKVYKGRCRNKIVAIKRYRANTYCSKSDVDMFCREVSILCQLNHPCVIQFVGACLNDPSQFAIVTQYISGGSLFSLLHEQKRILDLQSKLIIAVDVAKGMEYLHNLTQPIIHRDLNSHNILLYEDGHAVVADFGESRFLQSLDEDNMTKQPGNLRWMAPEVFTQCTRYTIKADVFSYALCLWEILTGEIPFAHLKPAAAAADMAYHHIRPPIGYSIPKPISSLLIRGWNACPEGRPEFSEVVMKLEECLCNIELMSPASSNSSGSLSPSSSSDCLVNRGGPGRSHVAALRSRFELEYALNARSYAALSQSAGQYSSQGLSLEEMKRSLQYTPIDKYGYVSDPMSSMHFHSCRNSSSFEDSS
Sequence of UniProt P45984 (whole entry, looked up): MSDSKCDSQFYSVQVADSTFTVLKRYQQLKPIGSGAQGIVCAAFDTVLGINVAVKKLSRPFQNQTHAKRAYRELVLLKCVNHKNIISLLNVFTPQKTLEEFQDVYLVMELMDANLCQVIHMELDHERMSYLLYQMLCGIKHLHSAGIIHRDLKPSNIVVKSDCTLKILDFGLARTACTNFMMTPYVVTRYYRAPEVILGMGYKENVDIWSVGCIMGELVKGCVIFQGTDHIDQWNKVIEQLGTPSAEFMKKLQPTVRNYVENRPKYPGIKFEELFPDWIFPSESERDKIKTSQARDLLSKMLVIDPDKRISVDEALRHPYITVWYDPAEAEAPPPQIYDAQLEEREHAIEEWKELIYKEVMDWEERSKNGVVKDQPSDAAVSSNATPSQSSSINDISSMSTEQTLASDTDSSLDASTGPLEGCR
Sequence of UniProt Q9UQ88 (whole entry, looked up): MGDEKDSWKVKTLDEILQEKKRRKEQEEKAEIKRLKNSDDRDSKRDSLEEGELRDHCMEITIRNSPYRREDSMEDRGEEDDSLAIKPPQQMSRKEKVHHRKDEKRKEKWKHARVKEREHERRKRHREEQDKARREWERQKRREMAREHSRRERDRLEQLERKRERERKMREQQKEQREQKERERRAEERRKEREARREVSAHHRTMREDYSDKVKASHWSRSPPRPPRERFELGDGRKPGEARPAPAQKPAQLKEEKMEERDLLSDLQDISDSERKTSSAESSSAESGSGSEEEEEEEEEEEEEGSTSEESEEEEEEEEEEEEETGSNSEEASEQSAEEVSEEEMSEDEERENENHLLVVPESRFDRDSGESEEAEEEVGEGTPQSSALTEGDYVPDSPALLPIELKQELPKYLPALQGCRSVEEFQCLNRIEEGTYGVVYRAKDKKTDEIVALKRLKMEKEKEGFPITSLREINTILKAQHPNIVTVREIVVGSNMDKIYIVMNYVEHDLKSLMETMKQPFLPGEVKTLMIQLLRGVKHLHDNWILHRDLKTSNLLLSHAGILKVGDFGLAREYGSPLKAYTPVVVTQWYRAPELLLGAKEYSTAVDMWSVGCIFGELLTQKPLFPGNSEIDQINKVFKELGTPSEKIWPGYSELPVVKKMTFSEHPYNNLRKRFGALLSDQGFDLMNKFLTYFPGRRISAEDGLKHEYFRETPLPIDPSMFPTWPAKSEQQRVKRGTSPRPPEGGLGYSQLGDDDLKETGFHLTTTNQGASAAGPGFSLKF
Sequence of UniProt Q6P2M8 (whole entry, looked up): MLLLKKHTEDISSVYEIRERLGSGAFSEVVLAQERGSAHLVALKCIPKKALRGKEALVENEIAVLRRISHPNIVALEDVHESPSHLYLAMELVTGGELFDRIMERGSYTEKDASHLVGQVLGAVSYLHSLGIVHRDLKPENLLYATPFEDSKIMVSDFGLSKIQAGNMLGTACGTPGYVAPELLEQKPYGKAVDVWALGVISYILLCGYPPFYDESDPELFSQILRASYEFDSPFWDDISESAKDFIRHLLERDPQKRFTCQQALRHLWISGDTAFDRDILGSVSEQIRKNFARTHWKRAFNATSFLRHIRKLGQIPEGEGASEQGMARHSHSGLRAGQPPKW
Sequence of UniProt P04629 (whole entry, looked up): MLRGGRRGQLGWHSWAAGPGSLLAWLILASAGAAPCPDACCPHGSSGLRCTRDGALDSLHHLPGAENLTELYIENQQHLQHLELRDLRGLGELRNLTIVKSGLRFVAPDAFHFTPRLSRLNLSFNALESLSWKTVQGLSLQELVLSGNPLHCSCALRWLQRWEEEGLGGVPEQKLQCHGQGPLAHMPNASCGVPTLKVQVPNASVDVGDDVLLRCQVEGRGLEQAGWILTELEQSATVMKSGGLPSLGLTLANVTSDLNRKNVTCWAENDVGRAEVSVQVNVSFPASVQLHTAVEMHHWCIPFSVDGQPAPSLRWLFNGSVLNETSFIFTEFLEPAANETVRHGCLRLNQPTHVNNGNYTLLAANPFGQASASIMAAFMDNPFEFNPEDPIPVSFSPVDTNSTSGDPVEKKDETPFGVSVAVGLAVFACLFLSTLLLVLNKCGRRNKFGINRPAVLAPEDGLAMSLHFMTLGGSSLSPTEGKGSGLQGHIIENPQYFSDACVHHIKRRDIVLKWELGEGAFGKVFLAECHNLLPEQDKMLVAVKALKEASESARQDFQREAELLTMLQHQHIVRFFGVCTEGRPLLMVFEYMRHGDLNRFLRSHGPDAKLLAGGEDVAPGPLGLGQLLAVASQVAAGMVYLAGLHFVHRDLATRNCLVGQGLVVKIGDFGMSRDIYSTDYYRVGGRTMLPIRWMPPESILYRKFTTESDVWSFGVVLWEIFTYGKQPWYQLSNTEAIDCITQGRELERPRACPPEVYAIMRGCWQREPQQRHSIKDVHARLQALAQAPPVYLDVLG
Sequence of UniProt Q13043 (whole entry, looked up): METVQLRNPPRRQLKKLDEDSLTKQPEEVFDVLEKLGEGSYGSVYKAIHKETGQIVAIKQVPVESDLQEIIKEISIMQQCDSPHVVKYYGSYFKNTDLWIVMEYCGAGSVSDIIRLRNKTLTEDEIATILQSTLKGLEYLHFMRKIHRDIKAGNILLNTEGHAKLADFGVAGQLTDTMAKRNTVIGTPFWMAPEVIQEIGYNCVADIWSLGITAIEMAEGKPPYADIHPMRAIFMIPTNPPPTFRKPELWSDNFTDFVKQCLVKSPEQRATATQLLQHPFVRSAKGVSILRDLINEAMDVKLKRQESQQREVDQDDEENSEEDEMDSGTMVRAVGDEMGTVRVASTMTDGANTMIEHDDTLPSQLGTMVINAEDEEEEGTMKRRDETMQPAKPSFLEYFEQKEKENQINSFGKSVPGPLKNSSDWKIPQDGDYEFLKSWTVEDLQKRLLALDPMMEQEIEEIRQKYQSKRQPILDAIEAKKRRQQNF

Series 1 — route: intraperitoneal; dose: 100 mg/kg twice daily
Structure (SMILES): CO[C@@H]1[C@@H](OC(N)=O)[C@@H](O)[C@H](Oc2ccc3c(O)c(NC(=O)c4ccc(O)c(CC=C(C)C)c4)c(=O)oc3c2C)OC1(C)C
Species: FVB/129P2 mice, Brca1-/- Trp53-/- TNBC allograft
conditions | tumour volume
25 days | 548 mm3 and 1030 mm3 and 1670 mm3 and 180 mm3
47 days | 3750 mm3
35 days | 572 mm3 and 2020 mm3
29 days | 670 mm3 and 260 mm3 and 1670 mm3
33 days | 1180 mm3 and 404 mm3 and 2650 mm3
11 days | 2370 mm3 and 727 mm3 and 1030 mm3 and 142 mm3 and 279 mm3 and 2350 mm3 and 736 mm3
5 days | 522 mm3 and 143 mm3 and 700 mm3 and 415 mm3 and 923 mm3 and 153 mm3 and 847 mm3
0 days | 186 mm3 and 164 mm3 and 106 mm3 and 128 mm3 and 141 mm3 and 127 mm3 and 220 mm3

Series 2 — tested at: 1 µM
Structure (SMILES): CO[C@@H](C)c1c(Nc2ccc([C@@H](N(C)C(=O)C3CCS(=O)(=O)CC3)C(F)(F)F)cc2)cnc2cc(Cl)nn12
target | assay | remaining binding
CDK9 (Homo sapiens, UniProt P50750) | cell-free assay, competition with immobilised ligand | 100%
AAK1 (Homo sapiens, UniProt Q2M2I8) | binding | 96%
EPHA2 (Homo sapiens, UniProt P29317) | cell-free assay, competition with immobilised ligand | 83%
LTK (Homo sapiens, UniProt P29376) | cell-free assay, competition with immobilised ligand | 95%
PNCK (Homo sapiens, UniProt Q6P2M8) | cell-free assay, competition with immobilised ligand | 100%
ULK1 (Homo sapiens, UniProt O75385) | cell-free assay, competition with immobilised ligand | 100%
STK4 (Homo sapiens, UniProt Q13043) | cell-free assay, competition with immobilised ligand | 100%
CDK11A (Homo sapiens, UniProt Q9UQ88) | binding, competition with immobilised ligand | 100%
NTRK1 (Homo sapiens, UniProt P04629) | cell-free assay, competition with immobilised ligand | 93%
CLK1 (Homo sapiens, UniProt P49759) | cell-free assay, competition with immobilised ligand | 82%
MAPK9 (Homo sapiens, UniProt P45984) | cell-free assay, competition with immobilised ligand | 76%
GAK (Homo sapiens, UniProt O14976) | cell-free assay, competition with immobilised ligand | 93%
EPHB6 (Homo sapiens, UniProt O15197) | cell-free assay, competition with immobilised ligand | 100%
Ribosomal protein S6 kinase alpha-4, N-terminal kinase domain (RPS6KA4, Homo sapiens, UniProt O75676) | cell-free assay, competition with immobilised ligand | 94%
TNNI3K (Homo sapiens, UniProt Q59H18) | cell-free assay, competition with immobilised ligand | 91%

Series 3 — observed: enzyme activity; mode: inhibitor; tested at: 0.5 µM; baseline: control
Target: Casein kinase II subunit alpha' (CSNK2A2, Homo sapiens, UniProt P19784)
Sequence of UniProt P19784 (whole entry, looked up): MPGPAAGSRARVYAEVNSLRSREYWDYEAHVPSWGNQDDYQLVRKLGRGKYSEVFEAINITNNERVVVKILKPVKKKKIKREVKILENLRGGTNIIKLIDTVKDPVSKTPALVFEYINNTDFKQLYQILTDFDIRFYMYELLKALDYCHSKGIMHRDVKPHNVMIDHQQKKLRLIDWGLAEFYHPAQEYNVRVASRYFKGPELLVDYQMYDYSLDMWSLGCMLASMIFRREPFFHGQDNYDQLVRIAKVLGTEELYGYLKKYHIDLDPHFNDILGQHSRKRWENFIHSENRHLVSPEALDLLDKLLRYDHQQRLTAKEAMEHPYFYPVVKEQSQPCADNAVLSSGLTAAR
Structure (SMILES) | remaining activity [%]
CN([C@@H](Cc1ccc(OS(=O)(=O)c2cccc3cnccc23)cc1)C(=O)N1CCN(c2ccccc2)CC1)S(=O)(=O)c1cccc2cnccc12 | 121
O=c1cc(-c2cccc3c2Sc2ccccc2S3)oc(N2CCOCC2)c1 | 96
c1ccc(-c2[nH]ncc2-c2ccnc3ccccc23)nc1 | 96.7
CCN(CC)C(=O)c1ccc(Nc2nc(OCC3CCCCC3)c3[nH]cnc3n2)cc1 | 90.9
O=C(NC(NC(=S)Nc1ccc(F)c([N+](=O)[O-])c1)C(Cl)(Cl)Cl)C(c1ccccc1)c1ccccc1 (centres unmarked) | 97
CN(C)C[C@H]1CCn2c(c(C3=C(c4cn(C)c5ccccc45)C(=O)NC3=O)c3ccccc32)C1 | 92.4
Cc1nc2cc3nc(-c4cccs4)cnc3cc2n1C | 99
O=C1C(Cl)=C(N2C(=O)CCC2=O)C(=O)c2ccccc21 | 100
COc1cc2c(cc1OC)-c1[nH]nc(Nc3cccc(F)c3)c1C2 | 105
Nc1cccc(-c2cc3c(Oc4cccc(O)c4)ncnc3[nH]2)c1 | 96.5
CCN(CC)CCNC(=O)c1c(C)[nH]c(/C=C2\C(=O)Nc3ccc(Cl)cc32)c1C | 64.3
O=C1c2ccccc2-c2n[nH]c3cccc1c23 | 89.2
COc1cc2ncnc(Nc3ccc(O)c(Br)c3)c2cc1OC | 89.2
Cc1cn(-c2cc(NC(=O)c3ccc(C)c(Nc4nccc(-c5cccnc5)n4)c3)cc(C(F)(F)F)c2)cn1 | 106
Cn1nc2c3c(cccc31)C(=O)c1ccccc1-2 | 86.6
Ic1cccc(CSc2nnc(-c3ccncc3)o2)c1 | 81
Cc1cc2ncc(-c3ccccc3)nc2cc1C | 90.3
c1ccc(-c2cnc(Nc3ccc(OCCN4CCCC4)cc3)s2)cc1 | 92.1
O=C(Nc1cccc(Nc2nccc(Nc3cccc(C(F)(F)F)c3)n2)c1)C1CC1 | 95.4
N#C/C(=C\c1ccc(O)c(O)c1)C(=O)NCc1ccccc1 | 81.9
COc1cc2ncnc(Nc3cccc(Cl)c3)c2cc1OC | 92.3
CCN(CC)CCNC(=O)c1c(C)[nH]c(/C=C2\C(=O)Nc3ccc(F)cc32)c1C | 92.2
CCOc1nc(NC(=O)Cc2cc(OC)ccc2OC)cc(N)c1C#N | 106
C[C@@H]1CCN(C(=O)CC#N)C[C@@H]1N(C)c1ncnc2[nH]ccc12 | 96.6

Series 4 — Structure (SMILES): CCOc1ccc(Nc2c3c(nc4ccccc24)CCC3)cc1
cell line | assay | conditions | cytotoxicity
PMA-differentiated THP-1 macrophages | – | 0.004 µM, 64 h | 4% and 5%
J774.1 | resazurin | 0.0332 µM | 0% and -2%
J774.1 | resazurin | 0.066 µM | -4% and -5%
PMA-differentiated THP-1 macrophages | – | 2 µM, 64 h | 9% and 3%
J774.1 | resazurin | 1.66 µM | -2% and -1%
J774.1 | resazurin | 33.32 µM, 64 h | 84% and 85%
PMA-differentiated THP-1 macrophages | – | 0.4 µM, 64 h | -1% and 1%
J774.1 | resazurin | 16.66 µM, 64 h | 69% and 65%
HepG2 | resazurin | 6.66 µM, 48 h | 56% and 51%
